Experimental data collected from several papers.
Every numbered part comes from another study and shows a few of its results, in no order. Changes are numbered by the printed parent chain.

Series 1
Target: ABI1, truncated, D143A, DHFR fusion (Arabidopsis thaliana)
Technique: DHFR PCA, deep sequencing
Matrix: yeast
Notes: methotrexate growth selection, single substitutions
With: (+)-ABA 0.11 µM
Reference: wild-type fitted maximum
Reading: higher = stronger binding
Starting sequence: PYL1, truncated, DHFR fusion (Arabidopsis thaliana); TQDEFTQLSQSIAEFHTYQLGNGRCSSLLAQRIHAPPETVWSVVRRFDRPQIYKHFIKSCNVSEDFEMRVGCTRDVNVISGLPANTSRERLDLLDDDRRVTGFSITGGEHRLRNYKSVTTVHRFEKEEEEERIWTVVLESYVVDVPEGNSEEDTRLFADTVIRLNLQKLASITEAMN; partner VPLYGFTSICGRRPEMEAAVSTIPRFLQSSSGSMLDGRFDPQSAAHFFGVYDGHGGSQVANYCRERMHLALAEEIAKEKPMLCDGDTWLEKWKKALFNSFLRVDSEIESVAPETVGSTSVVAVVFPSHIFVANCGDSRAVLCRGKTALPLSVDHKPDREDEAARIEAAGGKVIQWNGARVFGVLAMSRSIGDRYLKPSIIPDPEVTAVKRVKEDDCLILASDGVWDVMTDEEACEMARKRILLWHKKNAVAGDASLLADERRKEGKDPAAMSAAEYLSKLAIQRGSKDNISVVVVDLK
Change | relative binding score [%]
L156K | 2.16
R98T | -6.75
C72E | 23.4
E4Y | 24
D95G | -7.82
F15P | -2.4
F47M | -1.14
R46P | 2.24
S63A | 55.9
V40F | -8.38
A13I | 12.2
E127C | 41.4
R88N | 12.4
R123K | 61.9
E174D | 3.48
D48C | -2.33
S104R | 0.558
P36M | 0.719
D3Y | 38.4
I33G | 2.57
M68I | 33.2
Q10C | 13
E38S | 9.72
V44W | 0.775
D97R | 21.2

Series 2
Target: PABPC1L2, full length, GST fusion (mouse, UniProt A0ABA7IW68)
Technique: RNAcompete
Form: RNA
Matrix: in vitro
Tested at: 20 nM
Notes: 7-mer, probes averaged, single round
Reference: mean of 7-mers
Reading: higher = stronger binding
Construct (chain): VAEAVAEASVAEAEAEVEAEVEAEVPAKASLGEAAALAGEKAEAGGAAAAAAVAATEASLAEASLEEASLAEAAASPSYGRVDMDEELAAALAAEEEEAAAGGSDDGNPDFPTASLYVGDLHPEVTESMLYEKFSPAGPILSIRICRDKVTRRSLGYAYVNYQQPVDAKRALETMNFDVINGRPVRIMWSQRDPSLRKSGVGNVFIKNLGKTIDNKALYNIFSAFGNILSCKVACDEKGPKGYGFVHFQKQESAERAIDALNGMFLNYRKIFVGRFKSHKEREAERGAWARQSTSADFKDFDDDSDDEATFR
Sequence | 7-mer Z-score
UCACGCC | -0.269
UACGGUU | 0.0134
UGGCCAU | -0.273
AUGACAA | 0.276
UGUUGCG | -0.287
GCUAAAA | 3.1
CACAUGU | -0.269
ACUUAAC | -0.0645
CGGCAGA | 0.189
CAUUCUG | -0.307
GGCAGUU | 0.117
GGUGACG | -0.0337
GUAGCAA | 0.0533
CGGUGCG | 0.0406
UCCAUCG | -0.28
CAUUCGU | -0.208

Series 3
Target: RING finger protein unkempt homolog, zinc fingers 1-6, GST-SBP tag (UNK, Homo sapiens, UniProt Q9C0B0, residues 30-357)
UniProt Q9C0B0, sequence (30-357, looked up): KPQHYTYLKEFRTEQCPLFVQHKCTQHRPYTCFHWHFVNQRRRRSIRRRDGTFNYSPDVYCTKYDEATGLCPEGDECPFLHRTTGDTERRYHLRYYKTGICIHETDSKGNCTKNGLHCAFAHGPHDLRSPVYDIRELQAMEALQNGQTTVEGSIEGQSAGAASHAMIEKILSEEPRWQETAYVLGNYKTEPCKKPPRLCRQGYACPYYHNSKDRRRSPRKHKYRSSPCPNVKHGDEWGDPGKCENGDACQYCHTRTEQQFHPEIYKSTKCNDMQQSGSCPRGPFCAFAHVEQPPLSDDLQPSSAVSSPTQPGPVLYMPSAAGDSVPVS
Technique: RNA Bind-n-Seq
Form: RNA
Matrix: in vitro
Tested at: not given
Notes: RNA with constant flanks, ends assumed
Reference: input RNA pool
Reading: higher = stronger binding
Sequence | bound/input enrichment
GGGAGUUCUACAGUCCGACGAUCGAGCAAGAAUUUCAAACAUGCCUGACAAUCUGAUCUCUCUUGAAAUAAAGAGGGAUGCCAUCCGUCCCGACGUCGUUGUGAAAUCCUUGAGAUAUAAAGUGUGACUGGGUGUUUUCAAGACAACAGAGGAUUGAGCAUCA | 0.211 ratio
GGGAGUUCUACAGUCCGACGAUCAAGAGCUAACAGAAAACAUUUUGAAAGUGCUCAAAGAACAAGCUGCUGAUUCUAUUUUGGUACCCGAAGCAGCCCUAAAAUUAAACAAGGAUCUUUAUGUCCAUACGAUGAGAACUCUAGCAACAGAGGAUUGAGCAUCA | 0.202 ratio
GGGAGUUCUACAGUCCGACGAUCGAAUAGGUUGGGUAUAACACCUGCAGUUUCCAGCUCUAUGAAACAGGAGAGAGAGAGAAACCGCAGUUUGACUUGACUGUGGAAGAUGAUGGUUGCAUGCUUCUCAUUUGUACGUUUCCACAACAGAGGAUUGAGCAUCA | 0.189 ratio
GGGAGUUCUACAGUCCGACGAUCGUUUUUUUUCUCUAUGAAUAAAUGUCACUUUUUGAGGCAAAAAGAAGGAACCGUGAACAUUUCCGACACCCUUUUCUUUGGGGUAGGCUCUGCCCCAGGCGCCGUCUCCUUCCCCCCCCACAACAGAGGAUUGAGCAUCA | 0.904 ratio
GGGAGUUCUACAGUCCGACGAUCGAAGGACUGUAAUCAUAAUAAGCUCACUACUUGGCUAUUGUUUUUGUUUUAAUAUUCAACUACCGCCGUGUUUUAAAAAAAGUUAAAUGAAGAAUAAACACAAAUAUAAAAGCUCUGACUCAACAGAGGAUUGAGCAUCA | 0.26 ratio
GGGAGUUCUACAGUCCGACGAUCAGGCACUAUCUCAUUCAUACUGGUCAAAAGCCAUUUGAAUGUGAUGUGUGUCAUAAAACCUUCCGACAACUAGUUCAUCUGGAGAGGCAUCAACUAACUCAUAGUCUGCCUUUUAAAUGUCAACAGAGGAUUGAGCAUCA | 0.128 ratio
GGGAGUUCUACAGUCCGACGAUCUAGAGAUGAUAUCAAUUAUUACCUAUUGUUGCACUGACUUAUACGUAGAUCAAUAGGAGAUUCCGAUGCCCUUAUGCUGUGAGUUUGAUGUGAUUUCAUUAGCUGCAUGGUGCUUUCUGACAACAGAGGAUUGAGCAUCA | 0.981 ratio
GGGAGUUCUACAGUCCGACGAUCGCAGGAUCUUCUAAGUACCAGUGGGACAUUAUGAAAUCCCUUGGGCUCUCUGAUGACGACACCGUGAAGUUUUCUGAAGCAGAGCACUGGCUUGAUUAUUUCCCACCACUGGCCGUUCAGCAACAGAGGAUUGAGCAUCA | 0.125 ratio

Series 4
Target: CEP164, C-terminal peptide (human)
Technique: DHFR complementation, deep sequencing
Matrix: yeast
Notes: single substitutions, model-inferred values
Reference: wild type
Reading: higher = weaker binding
Starting sequence: PDZK1, PDZ domain 2 (human); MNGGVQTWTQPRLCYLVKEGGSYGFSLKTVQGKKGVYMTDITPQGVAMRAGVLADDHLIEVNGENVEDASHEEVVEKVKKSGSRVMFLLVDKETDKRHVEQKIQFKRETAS; partner HNRVKVYRF
Change | binding free energy change [kJ/mol]
K96T | -0.148
K106H | -0.386
E108G | -0.655
S81E | 5.16
L13V | -0.167
V30N | 1.96
E67A | 0.794
L53I | 1.3
K96P | 0.157
V46S | 1.63
F105Y | -0.907
V85Q | 6.18
K106I | -0.393

Series 5
Target: CCNE1, cyclin fold, Cln2 fusion (human)
Technique: yeast growth competition, sequencing
Matrix: yeast
Notes: strong parent motif
Reference: not given
Reading: higher = stronger binding
Starting sequence: INSM1 docking peptide (human); PKAIRKLHFEDEV; partner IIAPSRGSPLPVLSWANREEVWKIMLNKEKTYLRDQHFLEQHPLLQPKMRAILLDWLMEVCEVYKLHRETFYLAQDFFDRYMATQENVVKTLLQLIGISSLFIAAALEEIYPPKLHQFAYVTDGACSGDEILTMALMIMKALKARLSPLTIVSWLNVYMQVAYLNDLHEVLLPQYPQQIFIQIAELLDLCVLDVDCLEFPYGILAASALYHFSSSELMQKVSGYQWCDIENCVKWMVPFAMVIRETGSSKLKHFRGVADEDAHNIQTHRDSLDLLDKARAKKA
Change | normalised enrichment score
K2C | 4.51
E10N | 3.27
I4D | 0.0515
F9E | 0.0726
I4Y | 1.45
H8Q | 4.6
A3V | 5.76
E12Y | 3.75
I4P | 0.648
K6Q | 4.75
E12L | 3.67
K6C | 2.55
E12M | 4.03
A3H | 5.08
K2D | 2.88
E10P | 4.77
A3Q | 0.308
D11Q | 2.76
K6L | 1.13
L7E | -0.0737
I4G | 0.277
K2G | 4.95
H8I | 5.96
R5G | -0.0933
E10R | 1.53

Some of these lines once more (series 2):
Sequence | 7-mer Z-score
UGGCCAU | -0.273
AUGACAA | 0.276
UGUUGCG | -0.287
GCUAAAA | 3.1
CACAUGU | -0.269
ACUUAAC | -0.0645
CGGCAGA | 0.189
CAUUCUG | -0.307
GGCAGUU | 0.117
GGUGACG | -0.0337
